Measured values collected from several papers.
Each line is one published result; not all experiments were run side by side. ± marks the error that the study gave.
5-hydroxytryptamine receptor 2A: 5-hydroxytryptamine receptor 2A (Rattus norvegicus, UniProt P14842)
Chain of UniProt P14842 (whole entry, looked up): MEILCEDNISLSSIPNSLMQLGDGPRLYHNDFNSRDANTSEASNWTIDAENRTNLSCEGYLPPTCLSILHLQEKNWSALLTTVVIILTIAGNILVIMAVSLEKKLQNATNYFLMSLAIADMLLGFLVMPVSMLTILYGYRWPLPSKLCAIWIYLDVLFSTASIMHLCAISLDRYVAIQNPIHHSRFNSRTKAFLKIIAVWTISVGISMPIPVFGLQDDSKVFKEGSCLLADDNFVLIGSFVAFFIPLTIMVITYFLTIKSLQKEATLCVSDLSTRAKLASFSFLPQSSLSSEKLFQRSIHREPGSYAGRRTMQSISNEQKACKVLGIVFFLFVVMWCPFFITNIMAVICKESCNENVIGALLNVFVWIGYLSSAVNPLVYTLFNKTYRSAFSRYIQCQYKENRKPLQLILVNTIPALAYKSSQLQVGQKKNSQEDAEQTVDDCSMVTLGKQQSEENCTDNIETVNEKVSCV
Chain of UniProt P25103 (whole entry, looked up): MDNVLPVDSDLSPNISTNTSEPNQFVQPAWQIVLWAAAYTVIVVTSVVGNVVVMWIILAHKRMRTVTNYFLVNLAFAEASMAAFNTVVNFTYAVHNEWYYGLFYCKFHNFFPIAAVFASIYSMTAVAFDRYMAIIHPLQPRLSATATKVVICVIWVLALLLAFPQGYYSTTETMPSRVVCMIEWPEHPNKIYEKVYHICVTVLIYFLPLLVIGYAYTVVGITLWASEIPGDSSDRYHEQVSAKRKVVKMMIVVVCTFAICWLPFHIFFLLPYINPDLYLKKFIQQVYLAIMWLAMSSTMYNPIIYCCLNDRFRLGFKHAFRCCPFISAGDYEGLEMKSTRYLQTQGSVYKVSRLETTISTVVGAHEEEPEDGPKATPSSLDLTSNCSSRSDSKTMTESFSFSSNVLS
Chain of UniProt Q14973 (whole entry, looked up): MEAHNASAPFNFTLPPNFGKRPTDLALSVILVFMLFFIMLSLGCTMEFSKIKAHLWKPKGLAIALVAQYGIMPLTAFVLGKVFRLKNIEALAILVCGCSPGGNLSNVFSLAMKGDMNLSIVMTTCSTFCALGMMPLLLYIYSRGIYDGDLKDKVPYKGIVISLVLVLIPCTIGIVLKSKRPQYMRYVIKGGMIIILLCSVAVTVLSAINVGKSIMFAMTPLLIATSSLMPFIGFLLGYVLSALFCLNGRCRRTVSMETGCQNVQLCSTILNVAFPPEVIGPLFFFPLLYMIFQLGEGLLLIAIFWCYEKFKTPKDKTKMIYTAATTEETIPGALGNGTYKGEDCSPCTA
Chain of UniProt P26769 (whole entry, looked up): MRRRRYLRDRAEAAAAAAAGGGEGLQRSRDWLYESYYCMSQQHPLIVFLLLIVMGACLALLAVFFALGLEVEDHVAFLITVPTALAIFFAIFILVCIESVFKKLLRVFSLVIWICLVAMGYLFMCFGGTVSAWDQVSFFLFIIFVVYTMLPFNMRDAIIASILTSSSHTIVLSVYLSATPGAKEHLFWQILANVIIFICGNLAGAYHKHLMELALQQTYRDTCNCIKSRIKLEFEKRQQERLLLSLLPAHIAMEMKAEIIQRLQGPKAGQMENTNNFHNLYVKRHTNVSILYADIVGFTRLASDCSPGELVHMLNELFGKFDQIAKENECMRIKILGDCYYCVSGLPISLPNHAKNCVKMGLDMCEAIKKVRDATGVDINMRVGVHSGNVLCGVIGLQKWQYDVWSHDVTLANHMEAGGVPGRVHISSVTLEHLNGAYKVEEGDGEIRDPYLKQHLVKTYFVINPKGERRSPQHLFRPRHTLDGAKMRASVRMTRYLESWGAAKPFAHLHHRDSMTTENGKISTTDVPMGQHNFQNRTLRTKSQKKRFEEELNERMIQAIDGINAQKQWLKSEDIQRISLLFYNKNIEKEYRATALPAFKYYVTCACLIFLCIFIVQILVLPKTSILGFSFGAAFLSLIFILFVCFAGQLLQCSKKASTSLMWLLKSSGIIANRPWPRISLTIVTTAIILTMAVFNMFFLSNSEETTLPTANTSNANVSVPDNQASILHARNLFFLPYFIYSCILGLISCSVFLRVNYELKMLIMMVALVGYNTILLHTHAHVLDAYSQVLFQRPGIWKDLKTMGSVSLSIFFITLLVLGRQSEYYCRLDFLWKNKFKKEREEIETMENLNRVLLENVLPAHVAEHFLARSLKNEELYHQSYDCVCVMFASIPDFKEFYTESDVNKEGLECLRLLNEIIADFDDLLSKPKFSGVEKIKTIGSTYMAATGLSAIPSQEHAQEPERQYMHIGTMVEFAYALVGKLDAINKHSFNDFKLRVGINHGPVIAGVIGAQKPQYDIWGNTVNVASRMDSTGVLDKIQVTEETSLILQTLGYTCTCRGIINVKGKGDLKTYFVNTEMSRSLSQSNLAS
Chain of UniProt P32245 (whole entry, looked up): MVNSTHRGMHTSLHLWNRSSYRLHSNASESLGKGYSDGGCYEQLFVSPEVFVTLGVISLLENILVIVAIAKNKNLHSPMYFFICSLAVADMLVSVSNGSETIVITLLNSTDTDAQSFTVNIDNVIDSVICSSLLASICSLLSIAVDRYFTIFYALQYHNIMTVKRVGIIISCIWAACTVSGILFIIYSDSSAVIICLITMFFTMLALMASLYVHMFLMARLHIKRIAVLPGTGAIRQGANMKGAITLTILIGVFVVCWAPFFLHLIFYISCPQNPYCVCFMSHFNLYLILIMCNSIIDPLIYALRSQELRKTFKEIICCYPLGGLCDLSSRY
Chain of UniProt P29466 (whole entry, looked up): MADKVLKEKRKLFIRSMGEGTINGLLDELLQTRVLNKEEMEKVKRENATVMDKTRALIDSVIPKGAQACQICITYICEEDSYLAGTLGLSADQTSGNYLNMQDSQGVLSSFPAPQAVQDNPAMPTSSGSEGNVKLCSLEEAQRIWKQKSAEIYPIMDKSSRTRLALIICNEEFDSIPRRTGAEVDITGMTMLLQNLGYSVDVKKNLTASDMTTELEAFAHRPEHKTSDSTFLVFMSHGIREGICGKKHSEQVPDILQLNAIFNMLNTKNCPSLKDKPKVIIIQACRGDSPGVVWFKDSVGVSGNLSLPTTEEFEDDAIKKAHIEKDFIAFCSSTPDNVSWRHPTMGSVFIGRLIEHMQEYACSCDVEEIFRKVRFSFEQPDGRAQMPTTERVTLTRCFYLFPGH
Chain of UniProt P30803 (whole entry, looked up): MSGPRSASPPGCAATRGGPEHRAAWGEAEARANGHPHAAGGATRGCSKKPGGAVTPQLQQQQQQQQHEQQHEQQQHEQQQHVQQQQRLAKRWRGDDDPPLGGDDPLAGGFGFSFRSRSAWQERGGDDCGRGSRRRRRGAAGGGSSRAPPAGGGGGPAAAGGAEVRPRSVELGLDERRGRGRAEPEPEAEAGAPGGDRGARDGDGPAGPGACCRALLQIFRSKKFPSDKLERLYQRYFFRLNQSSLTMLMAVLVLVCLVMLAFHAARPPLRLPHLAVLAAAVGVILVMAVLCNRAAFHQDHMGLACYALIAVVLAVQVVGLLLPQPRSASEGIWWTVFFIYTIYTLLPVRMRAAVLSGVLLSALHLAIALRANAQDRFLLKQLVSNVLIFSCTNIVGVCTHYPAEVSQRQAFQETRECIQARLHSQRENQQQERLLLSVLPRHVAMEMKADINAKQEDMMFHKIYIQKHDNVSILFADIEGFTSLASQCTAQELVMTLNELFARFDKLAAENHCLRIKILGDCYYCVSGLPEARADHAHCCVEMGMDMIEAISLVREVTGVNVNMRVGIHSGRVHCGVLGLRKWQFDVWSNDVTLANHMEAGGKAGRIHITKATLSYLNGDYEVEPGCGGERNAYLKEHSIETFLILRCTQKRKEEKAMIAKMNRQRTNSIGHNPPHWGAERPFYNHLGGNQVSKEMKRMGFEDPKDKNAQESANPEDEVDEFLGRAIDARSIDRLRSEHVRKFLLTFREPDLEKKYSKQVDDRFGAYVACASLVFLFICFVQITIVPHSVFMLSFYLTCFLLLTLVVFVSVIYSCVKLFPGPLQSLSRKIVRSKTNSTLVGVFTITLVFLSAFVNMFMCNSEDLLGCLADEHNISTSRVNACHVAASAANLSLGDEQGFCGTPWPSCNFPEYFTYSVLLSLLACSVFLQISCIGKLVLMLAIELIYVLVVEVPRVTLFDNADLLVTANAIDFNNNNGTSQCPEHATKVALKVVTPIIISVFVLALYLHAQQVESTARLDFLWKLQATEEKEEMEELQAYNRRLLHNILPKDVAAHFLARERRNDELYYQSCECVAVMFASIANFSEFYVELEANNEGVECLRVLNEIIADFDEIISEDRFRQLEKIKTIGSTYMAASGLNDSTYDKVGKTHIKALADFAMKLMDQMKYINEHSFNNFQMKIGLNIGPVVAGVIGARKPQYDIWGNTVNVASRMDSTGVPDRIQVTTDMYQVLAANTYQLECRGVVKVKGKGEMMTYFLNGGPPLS
Chain of UniProt Q9Y5Z0 (whole entry, looked up): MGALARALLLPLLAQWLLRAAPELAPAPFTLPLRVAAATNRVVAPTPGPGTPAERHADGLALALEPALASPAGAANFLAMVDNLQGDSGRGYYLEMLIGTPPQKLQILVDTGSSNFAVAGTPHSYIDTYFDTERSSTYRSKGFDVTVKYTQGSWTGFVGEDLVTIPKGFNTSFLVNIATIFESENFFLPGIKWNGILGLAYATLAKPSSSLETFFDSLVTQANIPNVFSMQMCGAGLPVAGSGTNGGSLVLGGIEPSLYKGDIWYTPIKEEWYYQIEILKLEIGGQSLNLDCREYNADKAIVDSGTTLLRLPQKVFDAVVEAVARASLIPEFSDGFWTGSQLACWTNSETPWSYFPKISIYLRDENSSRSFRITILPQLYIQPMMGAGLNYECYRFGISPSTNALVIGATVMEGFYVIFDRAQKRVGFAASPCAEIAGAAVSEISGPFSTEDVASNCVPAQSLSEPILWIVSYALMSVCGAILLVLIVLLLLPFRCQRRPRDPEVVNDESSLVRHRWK

target	assay	system	setting	Ki	SMILES
Melanocortin receptor 4 (MC4R, Homo sapiens, UniProt P32245)		HEK-293T transfected	2 h, 37 °C, added: Eu-NDP-MSH	> 5000 nM	CC[C@H](C)[C@H](NC(=O)CN)C(=O)N[C@H](C(=O)N[C@@H](CC(N)=O)C(=O)N[C@H](C(=O)N[C@@H](CC(C)C)C(=O)N[C@@H](CCC(N)=O)C(=O)N[C@@H](CCCCN)C(=O)N[C@@H](Cc1ccc(O)cc1)C(=O)N[C@@H](Cc1ccc(O)cc1)C(=O)N[C@@H](CO)C(=O)N[C@@H](CCCNC(=N)N)C(=O)N[C@H](C(=O)N[C@@H](CCC(N)=O)C(=O)NCC(=O)NCC(=O)N[C@@H](CCC(N)=O)C(=O)N[C@@H](CO)C(=O)N[C@@H](C)C(=O)N[C@H](C(=O)N[C@@H](CC(C)C)C(=O)N[C@@H](CO)C(=O)N[C@@H](CO)C(=O)N[C@@H](CC(C)C)C(=O)N1CCC[C@H]1C(=O)N[C@@H](CCC(N)=O)C(=O)N[C@@H](CCC(=O)O)C(=O)N[C@@H](CCC(=O)O)C(=O)N[C@@H](CCC(N)=O)C(=O)N[C@H](C(=O)NCC(=O)N[C@@H](CCCCN)C(=O)N[C@@H](CO)C(=O)N[C@@H](CO)C(=O)N[C@H](C(=O)N[C@@H](CCCNC(=N)N)C(=O)NCC(=O)N[C@@H](CCCNC(=N)N)C(=O)N[C@@H](CCCCN)C(=O)N[C@@H](CO)C(=O)N[C@@H](CO)C(=O)N[C@@H](CCC(N)=O)C(=O)N[C@@H](CCC(N)=O)C(=O)N[C@@H](CCC(N)=O)C(=O)N[C@@H](CCC(N)=O)C(N)=O)[C@@H](C)O)[C@@H](C)CC)C(C)C)C(C)C)[C@@H](C)O)[C@@H](C)CC
Substance-P receptor (TACR1, Homo sapiens, UniProt P25103)	cell-free assay		pH 7.4	0.72 nM	Cc1ccccc1-c1cc(N2CCN(C)CC2)ccc1N(C)C(=O)C(C)(C)c1cc(C(F)(F)F)cc(C(F)(F)F)c1
Adcy2/ADCY5, C1/C2 domains (Rattus norvegicus, UniProt P26769+P30803)	enzyme activity, inhibitor		added: 10 mM MnCl2, 100 µM forskolin, Gsα-GTPγS	170 ± 27 nM	CNc1ccccc1C(=O)O[C@H]1[C@@H](O)[C@H](n2ccc(=O)[nH]c2=O)O[C@@H]1COP(=O)(O)OP(=O)(O)O
Caspase-1 (CASP1, Homo sapiens, UniProt P29466)	enzyme activity, inhibitor, fluorescence		pH 7	331 nM	CC(=O)N[C@@H](Cc1c[nH]c2ccccc12)C(=O)N[C@@H](CC(=O)O)C(=O)N[C@@H](CCCNC(=N)N)C(=O)N[C@@H](C)C(=O)N[C@H](C=O)CC(=O)O
5-hydroxytryptamine receptor 2A	cell-free assay			177 nM	Clc1cc(OCCCN2CCN(c3cccc4sccc34)CC2)ccc1CN1CCCCC1
Hepatic sodium/bile acid cotransporter (SLC10A1, Homo sapiens, UniProt Q14973)	transporter uptake, inhibitor, radiometric			15400 nM	C[C@H](CCC(=O)O)[C@H]1CC[C@H]2[C@@H]3[C@H](OC(=O)c4ccccc4)C[C@H]4C[C@H](O)CC[C@]4(C)[C@H]3CC[C@]12C
5-hydroxytryptamine receptor 2A	cell-free assay			249 nM	Clc1cc(CN2CCCC2)ccc1OCCCN1CCN(c2cccc3sccc23)CC1
Beta-secretase 2 (BACE2, Homo sapiens, UniProt Q9Y5Z0)				0.038 ± 0.014 nM	CCC[C@H](O)[C@H](NC[C@@H](O)[C@H](Cc1ccccc1)NC(=O)c1cc(C)cc(C(=O)N(C)[C@H](C)c2ccccc2)c1)C(=O)NCC(C)C

For quick reference, copied from above:
target	assay	system	setting	Ki	SMILES
Adcy2/ADCY5, C1/C2 domains (Rattus norvegicus, UniProt P26769+P30803)	enzyme activity, inhibitor		added: 10 mM MnCl2, 100 µM forskolin, Gsα-GTPγS	170 ± 27 nM	CNc1ccccc1C(=O)O[C@H]1[C@@H](O)[C@H](n2ccc(=O)[nH]c2=O)O[C@@H]1COP(=O)(O)OP(=O)(O)O
